Measured values gathered from unrelated publications.
Numbered parts are unrelated; each lists some results of a single study. Changes are numbered by the printed parent chain.

Study 1 — technique: RNA Bind-n-Seq; molecule type: RNA; sample: in vitro; tested at: 200 nM; notes: whole 134-nt RNA, ends assumed; added: 150 mM KCl; baseline: input library; direction: higher = stronger binding; measurement: log2 enrichment
Target: Ras GTPase-activating protein-binding protein 1, full length (G3BP1, Homo sapiens, UniProt Q13283)
UniProt Q13283, sequence (whole entry, looked up): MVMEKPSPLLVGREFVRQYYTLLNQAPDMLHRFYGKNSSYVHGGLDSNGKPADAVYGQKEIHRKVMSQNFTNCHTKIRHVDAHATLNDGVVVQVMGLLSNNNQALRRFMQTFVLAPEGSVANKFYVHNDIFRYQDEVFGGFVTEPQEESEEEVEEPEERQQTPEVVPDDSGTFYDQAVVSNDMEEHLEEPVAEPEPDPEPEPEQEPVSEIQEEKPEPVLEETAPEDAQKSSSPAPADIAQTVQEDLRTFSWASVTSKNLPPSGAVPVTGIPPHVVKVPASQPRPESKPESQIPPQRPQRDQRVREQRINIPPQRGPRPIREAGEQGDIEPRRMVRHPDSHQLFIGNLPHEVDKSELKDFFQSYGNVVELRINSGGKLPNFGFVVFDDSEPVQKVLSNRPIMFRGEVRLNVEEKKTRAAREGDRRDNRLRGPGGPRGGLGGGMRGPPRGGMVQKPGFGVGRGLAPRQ
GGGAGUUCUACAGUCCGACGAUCCAAGUCCUGUGCUACACAUCGUAUGUACCGAAUCGGUUUGGGGUUUGGGUUUGGGGAAAGUAUUAUGUUACGCCGUUCGGAUCUGCACUUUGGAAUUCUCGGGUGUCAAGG: -0.291
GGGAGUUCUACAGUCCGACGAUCCUCAAGUCCUGUGCUACACAUCGUAUGUACCGAAUCGGUGGAAAGGAAAAAGGAAAGUAUUAUGUUACGCCGUUCGGAUCUGCACUUCCAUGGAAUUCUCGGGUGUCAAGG: -0.489
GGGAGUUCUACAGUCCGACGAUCAUCAUGCAGGUGGGCAUCUUUGGGAAGUGGGGCAAGGGGGGGAUAGGGAGGGGGGUAACACUUUGGGAACAGGUGGUCCCAGGUCGUUUCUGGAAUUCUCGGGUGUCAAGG: 1.18
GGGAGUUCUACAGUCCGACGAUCUUCUAUUUCUUUCCUUAAUGUUUUUUUCUUCCCUACUGUUUUAUCCUCCCUUUGCUUUGGAAGGAUAUUGCUGCAUAUCGAGCUAAAGGAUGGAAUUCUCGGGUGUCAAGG: 0.0166
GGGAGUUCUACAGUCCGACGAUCCUGUGCUACACAUCGUAUGUACCGAAUCGGGUUUUUUUGGGUUUUUUUGGGAAAAAAAGGGAAAGUAUUAUGUUACGCCGUUCGGAUCUGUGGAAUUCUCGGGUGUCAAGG: -1.27
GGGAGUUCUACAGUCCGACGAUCAAGUCCUGUGCUACACAUCGUAUGUACCGAAUCGGUUUUUGGAAAAAGGAAAAAGGAAAGUAUUAUGUUACGCCGUUCGGAUCUGCACUUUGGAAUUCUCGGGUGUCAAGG: -1.1
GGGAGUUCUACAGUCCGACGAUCCAAGUCCUGUGCUACACAUCGUAUGUACCGAAUCGGGAAAGGGAAAAAGGGAGGGAAAGUAUUAUGUUACGCCGUUCGGAUCUGCACUUCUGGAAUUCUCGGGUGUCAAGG: 0.803
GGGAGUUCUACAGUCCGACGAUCCCUGUGCUACACAUCGUAUGUACCGAAUCGGUUUUUUUGGGGUUUUUUUGGGUUUUUUUGGAAAGUAUUAUGUUACGCCGUUCGGAUCUGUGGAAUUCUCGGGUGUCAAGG: -0.71
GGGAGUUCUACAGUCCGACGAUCGCUGUGACCCCAACGCCGGUGCCCGUGGUCGGGAGCCAGAUGACCAGACAAGCCCGGCGCCUCUACGUGGGCAACAUCCCCUUUGGCAUCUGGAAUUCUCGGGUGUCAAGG: -0.026

Study 2 — target: UBE2Q2 UBC core domain (UniProt Q8WVN8); technique: yeast two-hybrid; sample: yeast; notes: mostly zero background; baseline: not given; direction: higher = stronger interaction; measurement: lacZ reporter activity
UniProt Q8WVN8, sequence (whole entry, looked up): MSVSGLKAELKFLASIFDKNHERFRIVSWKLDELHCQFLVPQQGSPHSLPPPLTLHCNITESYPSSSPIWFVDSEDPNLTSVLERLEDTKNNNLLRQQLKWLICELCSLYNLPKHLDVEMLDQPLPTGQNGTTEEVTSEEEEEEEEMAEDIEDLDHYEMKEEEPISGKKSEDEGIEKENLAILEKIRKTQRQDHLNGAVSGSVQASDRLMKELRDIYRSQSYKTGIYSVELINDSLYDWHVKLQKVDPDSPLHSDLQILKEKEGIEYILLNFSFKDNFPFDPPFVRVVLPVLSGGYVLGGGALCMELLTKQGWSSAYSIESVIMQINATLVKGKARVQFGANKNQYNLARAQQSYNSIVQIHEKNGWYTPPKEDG
B1: RNF24 RING domain (UniProt Q9Y225); chain KVKELNLHELCAVCLEDFKPRDELGICPCKHAFHRKCLIKWLEVRKVCPLCNMPVLQLAQLH
B2: PRKN RING domain (UniProt O60260); chain LIATNSRNITCITCTDVRSPVLVFQCNSRHVICLDCFHLYCVTRLNDRQFVHDPQLGYSLPCVAGCPNSLIKELHH
B3: TRIM22 RING domain (UniProt Q8IYM9); chain KEVKMSPQEGQKRDVCEHHGKKLQIFCKEDGKVICWVCELSQEHQGHQTFRINEVVKECQEK
B4: ZNRF3 RING domain (UniProt Q9ULT6); chain DTLSSSSTSDCAICLEKYIDGEELRVIPCTHRFHRKCVDPWLLQHHTCPHCRHNIIEQKGNP
B5: RNF181 RING domain (UniProt Q9P0P0); chain VIRGSQAELKCPVCLLEFEEEETAIEMPCHHLFHSSCILPWLSKTNSCPLCRYELPTDDDTY
B1 (RNF24 RING domain): 0
B2 (PRKN RING domain): 0
B3 (TRIM22 RING domain): 0
B4 (ZNRF3 RING domain): 0
ALDRLEKLLRCSRCTNILREPVCLGGCEHIFCSNCVSDCIGTGCPVCYTPAWIQDLKI (BARD1 RING domain (UniProt Q99728)): 0
QLRRLQEERTCKVCLDRAVSIVFVPCGHLVCAECAPGLQLCPICRAPVRSRVRTF (BIRC7 RING domain (UniProt Q96CA5)): 0
NTAPSLTVPECAICLQTCVHPVSLPCKHVFCYLCVKGASWLGKRCALCRQEIPEDFLDK (RNF146 RING domain (UniProt Q9NTX7)): 0
B5 (RNF181 RING domain): 0

Study 3 — target: CCNB1, cyclin fold, Cln2 fusion (human); technique: yeast growth competition, sequencing; sample: yeast; notes: strong parent motif; baseline: not given; direction: higher = stronger binding; measurement: normalised enrichment score
Starting sequence: RBL2 docking peptide (human); STTRRRLFVENDS
SGTRRRLFVENDS [T2G]: 1.63
STTRPRLFVENDS [R5P]: 0.795
STFRRRLFVENDS [T3F]: 0.259
SDTRRRLFVENDS [T2D]: 0.725
STTRRWLFVENDS [R6W]: 0.539
STTRRRLFVENDE [S13E]: 1.59
STTRRRLFPENDS [V9P]: 0.0778
STTNRRLFVENDS [R4N]: 0.552
CTTRRRLFVENDS [S1C]: 1.76
STTRRRLFVEWDS [N11W]: 1.21
STTRRRLFVENGS [D12G]: 1.73
STTRRRLFDENDS [V9D]: 1.29
STHRRRLFVENDS [T3H]: 0.0626
STTFRRLFVENDS [R4F]: 1.52
STTKRRLFVENDS [R4K]: 0.514
SCTRRRLFVENDS [T2C]: 0.962
STTRRKLFVENDS [R6K]: 1.11
STTRRRLFVENNS [D12N]: 0.222
STTRRTLFVENDS [R6T]: -0.0482
STKRRRLFVENDS [T3K]: 0.924
STTRGRLFVENDS [R5G]: 0.26
STTRRRNFVENDS [L7N]: 0.428
STTVRRLFVENDS [R4V]: 1.66
STTRRRLFVENPS [D12P]: 0.884

Study 4 — technique: DHFR PCA, deep sequencing; sample: yeast; added: (+)-ABA 1.4 µM; baseline: wild-type fitted maximum; direction: higher = stronger binding; measurement: relative binding score
Target: ABI1, truncated, D143A, DHFR fusion (Arabidopsis thaliana)
Notes: methotrexate growth selection, single substitutions
Starting sequence: PYL1, truncated, DHFR fusion (Arabidopsis thaliana); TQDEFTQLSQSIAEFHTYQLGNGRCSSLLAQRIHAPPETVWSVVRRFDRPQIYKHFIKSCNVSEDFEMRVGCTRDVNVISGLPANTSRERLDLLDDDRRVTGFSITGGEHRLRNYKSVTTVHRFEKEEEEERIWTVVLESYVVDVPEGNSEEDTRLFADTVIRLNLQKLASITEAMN; partner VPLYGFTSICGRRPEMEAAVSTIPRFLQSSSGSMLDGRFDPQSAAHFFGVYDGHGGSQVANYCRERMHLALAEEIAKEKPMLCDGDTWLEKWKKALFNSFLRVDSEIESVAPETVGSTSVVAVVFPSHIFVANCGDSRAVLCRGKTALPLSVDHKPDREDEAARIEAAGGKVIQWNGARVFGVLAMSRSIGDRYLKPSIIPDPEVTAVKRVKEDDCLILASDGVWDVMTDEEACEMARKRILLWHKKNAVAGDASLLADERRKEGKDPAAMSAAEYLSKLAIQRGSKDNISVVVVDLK
Y18V: 4.24%
T73L: 47%
T17L: -13.4%
E127Y: 49.1%
E152S: 37.5%
C60M: -3.28%
A84S: 21.8%
G148A: 5.65%
L138Q: 10%
E130K: 79.4%
L93A: 22.3%
I12W: 9.38%
E147W: 12.4%
Q51T: 1.42%
V136L: 49.5%
L28N: -5.74%
S150M: -7.14%
E125F: 62.7%
G71Y: -6.43%
I105S: 7.55%
Y53V: -0.363%
S27P: -4.76%
A170C: 31.8%
R69L: 23.3%
D75L: 68.5%

A few entries again (study 3):
STTRGRLFVENDS [R5G]: 0.26
SDTRRRLFVENDS [T2D]: 0.725
CTTRRRLFVENDS [S1C]: 1.76
STTRRRLFDENDS [V9D]: 1.29
STTRRRLFVEWDS [N11W]: 1.21
STTRRKLFVENDS [R6K]: 1.11
STTRRRLFPENDS [V9P]: 0.0778
STKRRRLFVENDS [T3K]: 0.924
STTRRWLFVENDS [R6W]: 0.539
STTRRRLFVENNS [D12N]: 0.222
